Measurements from different studies.
Numbers after ± are the reported error.

Compound	cell line	test	conditions	IC50
CCCc1nc2ccccn2c1Nc1ccc(C(=O)NO)cc1	CAL-27	HDAC activity, inhibitor, whole-cell		27.6 µM
O=C1/C(=C(\O)c2ccccc2)C(=O)[C@@]2(C(=O)OC3CCCCC3)CS[C@H](c3ccccc3)N12	MDCK	cell growth or viability, resazurin		62.5 µg/mL
CCc1n(CC(=O)O[C@@H]2C[C@H](C)CC[C@H]2C(C)C)c2ccccc2[n+]1C	primary mouse glioblastoma cultures	cell viability		~0.15 µM
[Cl][Pt-]1([Cl])[S]C(Nc2ccccc2)=N[N+]1=Cc1ccc(-c2ccccc2)s1	MDCK	cell proliferation		60.7 µM
CC1CCC(C(C)C)C(OC(=O)Cn2c(-c3ccc(OC(=O)CCCCC4SCC5NC(=O)NC54)cc3)[n+](C)c3ccccc32)C1 (stereo not shown)	HTS	cell growth or viability, ATP luminescence	96 h	1.53 µM
O=c1[nH]c2ccccc2nc1/C=C/C=C/c1ccccc1	HeLa 229	cell growth or viability, MTT	72 h	12.9 µM
C[C@]12CC/C(=N\O)C=C1CCC1C2CC[C@]2(C)/C(=C/c3ccccn3)CCC12 (stereo partly shown)	CEM	cytotoxicity, alamarBlue	72 h	> 50 µM
CC(C)C[C@@H]1NC(=O)[C@H](CCCCN)NC(=O)CN(S(C)(=O)=O)CCNC(=O)[C@H](Cc2c[nH]c3ccccc23)NC(=O)[C@H](CO)NC(=O)[C@H](C(C)C)NC(=O)[C@H](C(C)C)NC(=O)[C@H](C)NC(=O)CN(S(C)(=O)=O)CCNC(=O)[C@H](CCCCN)NC(=O)[C@H](CC(C)C)NC(=O)[C@H](CCCCN)NC1=O	NCI-H929	viability, TO-PRO-3 staining, flow cytometry		31.1 µM
COc1cccc(/C=N/NC(=O)COc2ccc(/C=N/NC(=O)C(C)c3ccc(CC(C)C)cc3)cc2)c1O (stereo not shown)	U87 MG	cytotoxicity, MTT		122.5 ± 0.14 µM
Oc1ccc(-c2csc(Cc3ccccc3)n2)c(O)c1	HPNE	cell growth or viability, resazurin	72 h	15 µM
Brc1ccc(Nc2nc(NN=Cc3c[nH]c4ccccc34)nc(N3CCOCC3)n2)cc1	SK-BR-3	cell growth or viability, SRB	5 days	0.4 µM
CC(=O)Nc1ccc(OC(=O)CCC(=O)[O][Pt-2]23([O]C(=O)CCC(=O)Oc4ccc(NC(C)=O)cc4)([NH2+][C@@H]4CCCC[C@H]4[NH2+]2)[O]C(=O)C(=O)[O]3)cc1	Renca	cell growth or viability, MTT	48 h	13.1 µM
CSCC[C@@H]1NC(=O)CN(S(C)(=O)=O)CCNC(=O)[C@H](CCCCN)NC(=O)[C@H](CC(C)C)NC(=O)[C@H](CCCCN)NC(=O)[C@H](CC(C)C)NC(=O)[C@H](CCCCN)NC(=O)CN(S(C)(=O)=O)CCNC(=O)[C@H](C)NC(=O)[C@H](CO)NC(=O)[C@H](C(C)C)NC(=O)[C@H](C(C)C)NC1=O	NCI-H929	viability, TO-PRO-3 staining, flow cytometry		57.1 µM
COc1c(OCCCCN2CCCC2)cc(O)c2c(=O)cc(-c3ccccc3)oc12	KBM5	cell growth or viability, CCK-8		17.6 µM
CC[C@H](C(=O)N1CCCC[C@@H]1C(=O)O[C@H](CCc1ccc(OC)c(OC)c1)c1cccc(OCC(=O)NCCOCCOCCN(C)C/C=C/C(=O)Nc2cc3c(Nc4ccc(F)c(Cl)c4)ncnc3cc2OC)c1)c1cc(OC)c(OC)c(OC)c1	NCI-H1975 expressing FKBP12F36V-PTPN2	cell viability, CellTiter-Glo	6 days	2.58 µM
CSCC[C@@H]1NC(=O)CN(S(C)(=O)=O)CCNC(=O)[C@H](CCCCN)NC(=O)[C@H](CC(C)C)NC(=O)[C@H](CCCCN)NC(=O)[C@H](CC(C)C)NC(=O)[C@H](CCCCN)NC(=O)CN(S(C)(=O)=O)CCNC(=O)[C@H](Cc2c[nH]c3ccccc23)NC(=O)[C@H](CO)NC(=O)[C@H](C(C)C)NC(=O)[C@H](C)NC1=O	NCI-H929	viability, TO-PRO-3 staining, flow cytometry		6.2 µM
CC1CCc2c(c(-c3c[nH]nc3C(F)(F)F)nc3ccc4[nH]ncc4c23)C1 (stereo not shown)	MOLM-14	cell growth or viability, resazurin	72 h	0.0268 µM
COC(=O)c1ccc(C[Se]CC2C(=O)C34C(O)C2CCC3C23COC4(O)C(O)C2C(C)(C)CCC3O)cc1 (stereo not shown)	normal cells			> 50 µM
O=C(NO)c1ccc(Nc2cnc3ccccn23)cc1	CAL-27	HDAC activity, inhibitor, whole-cell		13.9 µM
COc1cc(CN2CCN(c3ccc(C)cc3)CC2)c2cc3[n+](cc2c1O)CCc1cc2c(cc1-3)OCO2	Ca-Ski	cell growth or viability, SRB	48 h	5 µg/mL
Cn1cnc(Cn2ccc3ccc(CNCc4[nH]c5ccccc5c4C4NC(=O)c5ccc(O)cc54)cc32)c1 (stereo not shown)	NCI-H358	cell growth or viability, ATP luminescence	72 h	> 30 µM
COC(=O)[C@H](CSSC(C)(C)[C@H](NC(=O)[C@H](CCC(=O)NC[C@H](O)[C@@H](O)[C@H](O)[C@H](O)CO)NC(=O)[C@H](CCC(=O)O)NC(=O)[C@H](CCC(=O)NC[C@H](O)[C@@H](O)[C@H](O)[C@H](O)CO)NC(=O)[C@H](CCC(=O)O)NC(=O)[C@H](CCC(=O)NC[C@H](O)[C@@H](O)[C@H](O)[C@H](O)CO)NC(=O)CC[C@H](NC(=O)c1ccc(NCc2cnc3nc(N)[nH]c(=O)c3n2)cc1)C(=O)O)C(=O)O)NC(=O)CC[C@H](NC(=O)c1ccc(NCc2cnc3nc(N)nc(N)c3n2)cc1)C(=O)O	THP-1 expressing FRβ	cell viability, XTT	2 h pulse, 70 h chase	0.0087 µM
COc1cc(/C=C/C(=O)c2ccc(O)cc2O)ccc1O	human cells	NF-κB reporter gene, inhibitor	together with: TNF-alpha	38 µM
COC(=O)CCC(=O)[O][Pt-2]1([OH])([Cl])([Cl])[NH2+]CC[N+]1(C)C	P31	cell viability, EZ4U	96 h	34.3 ± 1.2 µM
O=[N+]([O-])c1ccc(C(c2c(-c3ccccc3)[nH]c3ccccc23)c2c(-c3ccccc3)[nH]c3ccccc23)cc1	B16	cell growth or viability, MTT	24 h	23.3 µM

Compound	cell line	test	conditions	IC50
COc1cc(CN2CCN(c3ccc(F)cc3)CC2)c2cc3[n+](cc2c1O)CCc1cc2c(cc1-3)OCO2	Ca-Ski	cell growth or viability, SRB	48 h	5.78 µg/mL
CC1(C)CCCC(C)(C2CCC3(C)C2C(O)CC2C4(C)CCC(O)C(C)(C)C4C(OC(=O)c4cn(-c5ccc(Cl)cc5)nn4)CC23C)O1 (stereo not shown)	Hep3B	HRE reporter gene, inhibitor	24 h, hypoxia	> 30 µM
Clc1ccc(NN=C(c2ccccc2)c2ccccn2)nc1	NCI-H358			0.1 µM
CC1(C)CCCC(C)(C2CCC3(C)C2C(O)CC2C4(C)CCC(OC(=O)c5cn(-c6ccccc6)nn5)C(C)(C)C4C(O)CC23C)O1 (stereo not shown)	Hep3B	HRE reporter gene, inhibitor	24 h, hypoxia	0.43 ± 0.06 µM
COc1cc(CC(=O)N2CC(=O)N[C@@H](Cc3ccccc3)CN(C(=O)Cc3ccc4ccccc4c3)CC(=O)N[C@@H](CCCCN)CN(C(=O)Cc3ccc4c(c3)OCO4)CC(=O)N[C@@H](CCCCN)CN(CC(N)=O)C(=O)CCSCc3ccc(cc3)C(=O)N[C@@H](CC(C)C)C2)cc(OC)c1	SK-BR-3	cell proliferation, CCK-8	72 h, reduced serum, together with: EGF 100 ng/mL	17.9 µM
Cc1c(OCc2ccccc2)c(=O)ccn1CCCOC(=O)c1ccc(Cl)cc1	fibroblast cells	cell viability, MTT	48 h	85 µg/mL
C=CC(OC(C)=O)c1cc(OC)cc(OC)c1 (stereo not shown)	HMEC	MTT	24 h	> 50 µM
CC(C)=CCOc1ccc(-c2coc3cc4c(c(O)c3c2=O)C=CC(C)(C)O4)cc1	Huh-7	cell growth or viability, MTT	24 h	> 100 µM
CC1(C)CCCC(C)(C2CCC3(C)C2C(O)CC2C4(C)CCC(O)C(C)(C)C4C(OC(=O)Nc4ccccc4)CC23C)O1 (stereo not shown)	Hep3B	HRE reporter gene, inhibitor	24 h, hypoxia	5.47 ± 0.11 µM
CN1CCCNC(=O)c2cccc(c2)C(=O)NCCCN(C)CCCNc2cccc3c2C(=O)c2cccc(c2C3=O)NCCC1	normal cells, mouse bone marrow cells	cell proliferation	general range	> 6 µM
NC(CSSCC(N)C(=O)N1CCn2cc(-c3ccccc3)nc2C1CC1CCCCC1)C(=O)N1CCn2cc(-c3ccccc3)nc2C1CC1CCCCC1 (stereo not shown)	92.1 GNAQ Q209L	cell growth	72 h	9.7 ± 0.1 µM
CC1(C)Cc2c(-c3ccccc3)c(-c3ccc(Cl)cc3)c(CC(=O)O)n2C1	THP-1-derived macrophages	PGI2 production	together with: LPS	0.85 µM
COc1ccc(C=CC(=O)OC2CC3(C)C(CC(O)C4C(C5(C)CCCC(C)(C)O5)CCC43C)C3(C)CCC(OC(=O)C=Cc4ccc(OC)cc4)C(C)(C)C23)cc1 (stereo not shown)	Hep3B	HRE reporter gene, inhibitor	24 h, hypoxia	> 30 µM
O=[N+]([O-])c1ccc(NC2=N[N+](=Cc3cccs3)[Pd-]([Cl])([Cl])[S]2)cc1	MDCK	cell proliferation		> 100 µM
O=C(/C=C/c1ccc(O)cc1)c1ccc(O)cc1O	human cells	NF-κB reporter gene, inhibitor	together with: TNF-alpha	32.4 µM
O=C(/C=C(O)/C=C/c1cccs1)/C=C/c1cccs1	EA.hy 926	cell growth or viability, SRB	72 h	59.9 µM
Cc1ccc(-n2cc(CSc3nc4ccccc4n3Cc3cn(-c4ccc(C)cc4)nn3)nn2)cc1	HEK293	cell growth or viability, MTT		77.6 µg/mL
CC1=C2[O][Ru-]([Cl])[O+]=C2C=CN1CCCN1C=CC2=[O+][Ru-]([Cl])[O]C2=C1C.Cc1ccc(C(C)C)cc1.Cc1ccc(C(C)C)cc1	RT-4	cell growth or viability, crystal violet	96 h	> 20 µM
CC(C)[C@H](NC(=O)OC(C)(C)C)C(=O)OC1CC2(C)C(CC(O)C3C(C4(C)CCCC(C)(C)O4)CCC32C)C2(C)CCC(O)C(C)(C)C12 (stereo partly shown)	Hep3B	HRE reporter gene, inhibitor	24 h, hypoxia	0.54 ± 0.09 µM
C=CC(=O)N1CCCC(n2c(=O)c3ncccc3n(Cc3ccc(Oc4ccccc4)cc3)c2=O)C1 (stereo not shown)	VL51 idelalisib-resistant	cell proliferation, MTT	72 h	0.1 µM
CC1(C)CCCC(C)(C2CCC3(C)C2C(O)CC2C4(C)CCC(OC(=O)c5cn(-c6ccc(Cl)cc6)nn5)C(C)(C)C4C(OC(=O)c4cn(-c5ccc(Cl)cc5)nn4)CC23C)O1 (stereo not shown)	Hep3B	HRE reporter gene, inhibitor	24 h, hypoxia	> 30 µM
COc1ccc(-c2ocnc2-c2cc(Br)c(OC)c(OC)c2)cc1OCCCC(=O)NO	Huh-7	cell growth or viability, crystal violet	48 h	0.6 µM
CC1(C)CCCC(C)(C2CCC3(C)C2C(O)CC2C4(C)CCC(OC(=O)[C@@H](N)Cc5c[nH]c6ccccc56)C(C)(C)C4C(O)CC23C)O1 (stereo partly shown)	Hep3B	HRE reporter gene, inhibitor	24 h, hypoxia	2.11 ± 0.28 µM
NC(=S)NNC(=O)c1cc2ccccc2oc1=O	EA.hy 926	cell growth or viability, SRB	72 h	20 µM

Excerpt of the above:
Compound	cell line	test	conditions	IC50
COc1cc(CN2CCN(c3ccc(C)cc3)CC2)c2cc3[n+](cc2c1O)CCc1cc2c(cc1-3)OCO2	Ca-Ski	cell growth or viability, SRB	48 h	5 µg/mL
CCCc1nc2ccccn2c1Nc1ccc(C(=O)NO)cc1	CAL-27	HDAC activity, inhibitor, whole-cell		27.6 µM
CC(C)C[C@@H]1NC(=O)[C@H](CCCCN)NC(=O)CN(S(C)(=O)=O)CCNC(=O)[C@H](Cc2c[nH]c3ccccc23)NC(=O)[C@H](CO)NC(=O)[C@H](C(C)C)NC(=O)[C@H](C(C)C)NC(=O)[C@H](C)NC(=O)CN(S(C)(=O)=O)CCNC(=O)[C@H](CCCCN)NC(=O)[C@H](CC(C)C)NC(=O)[C@H](CCCCN)NC1=O	NCI-H929	viability, TO-PRO-3 staining, flow cytometry		31.1 µM
